Experimental data of several laboratories.
Protocols differ between the studies behind these lines.
Medium: plasma

system | setting | measurement | result | SMILES
male CD-1 mouse | intravenous, 1 mg/kg, single dose | AUC(0-inf) | 27.9 ng·h/mL | CN1/C(=C/C=C/c2cc(-c3ccccc3)cc(-c3ccccc3)[o+]2)C(C)(C)c2ccccc21
CD-1 mouse | oral, 10 mg/kg | AUC(0-inf) | 169 ng·h/mL | C[C@H]1CN(C(=O)c2cn(-c3ccnc(N)n3)c3cc(C#CC4(O)CCCCC4)ccc23)CCN1
BALB/c mouse | oral, 10 mg/kg, single dose | AUC(0-inf) | 44.3 ng·h/mL | COC(=O)C1OC(Oc2c(-c3ccccc3)oc3cc(O)c(O)c(O)c3c2=O)C(O)C(O)C1O (centres unmarked)
female C57BL/6 mouse | oral, 100 mg/kg | AUC(0-inf) | 860 ng·h/mL | O=C1OC2(c3ccccc31)c1cc(I)c(O)c(I)c1Oc1c2cc(I)c(O)c1I
male C57BL/6 mouse | oral, 400 mg/kg, single dose | AUC(0-inf) | 119000 ng·h/mL | CCC(=C(c1ccc(Cl)cc1)c1ccc(OCCN2CCOCC2)cc1)c1ccc(OC)cc1
male Kunming mouse | intravenous, 5 mg/kg | AUC(0-inf) | 19300 ng·h/mL | COc1cccc2c1C(=O)c1c(O)c3c(c(O)c1C2=O)C[C@@](O)(C(=O)CO)C[C@@H]3O[C@H]1C[C@H](N)[C@@H](O)[C@H](C)O1
female CD-1 mouse | oral, 50 mg/kg | AUC(0-inf) | 6840 ng·h/mL | O=C1C2=C(CCN(Cc3ccccc3)C2)N2CCN=C2N1Cc1ccc(C(F)(F)F)cc1
mouse | intraperitoneal, 1 mg/kg, single dose | AUC(0-t) | 7 ng·h/mL | C[N+]1(CC(=O)OC2CCCCCCCCCCC2)CCCCC1
mouse | oral, 25 mg/kg | AUC(0-inf) | < 10 ng·h/mL | CCC/C(=C\C1=C(C(F)(F)F)C(=O)c2ccccc2C1=O)C(=O)N(CC)CC
female BALB/c mouse | intraperitoneal, 50 mg/kg | AUC(0-inf) | 10700 ng·h/mL | [2H]C([2H])(N)C([2H])([2H])NC(=O)c1cc(C2CC2)nc2c1cnn2C(C)C
mouse | intraperitoneal, 3 mg/kg | AUC(0-inf) | 704 ng·h/mL | Cc1ccc2oc(-c3c4c(N)n[nH]c(=O)c4nn3-c3ccc(NC(=O)/C=C/CN(C)C)cc3)c(C)c2c1
male BALB/c mouse | intravenous, 10 mg/kg | AUC(0-inf) | 6950 ng·h/mL | CN[C@@H]1[C@H](O)[C@H](NC)[C@H]2O[C@]3(O)[C@H](O[C@@H]2[C@H]1O)O[C@H](C)C[C@@]3(O)CNCCc1nccs1
mouse | oral, 25 mg/kg | AUC(0-inf) | 22800 ng·h/mL | CCC/C(=C\C1=C(F)C(=O)c2ccccc2C1=O)C(=O)N(CC)CC
mouse | intraperitoneal, 3 mg/kg | AUC(0-inf) | 1.76 µM·h | CC(C)(O)Cn1nc(-c2ccccc2)c2c(Cl)c(-c3ccccc3)nnc21

Repeated from above:
system | setting | measurement | result | SMILES
female C57BL/6 mouse | oral, 100 mg/kg | AUC(0-inf) | 860 ng·h/mL | O=C1OC2(c3ccccc31)c1cc(I)c(O)c(I)c1Oc1c2cc(I)c(O)c1I
